{"data": "Experimental data gathered from unrelated publications", "note": "Each line is one published result; not all experiments were run side by side. Several values in a cell are separate wells, animals, samples, runs or records. ± gives the spread as reported."}
{"Structure (SMILES)": "CCOC(=O)C1(C)Oc2cc(F)ccc2N(C)C1=O (stereo not shown)", "tested on": "Arabidopsis thaliana", "assay": "stem length, petri dish germination", "system": "Col-0, 1/2 MS medium", "conditions": "50 µg/mL, 7 days, 22 °C, dark", "quantity": "inhibition", "value": "65.8%"}
{"Structure (SMILES)": "CCCCCOc1ccc(-c2ccc3ncnc(Nc4ccc(OCc5cccc(F)c5)c(Cl)c4)c3c2)c(F)c1F", "tested on": "Plasmodium falciparum", "assay": "parasite growth, SYBR Green fluorescence", "system": "C235 (TM91C235), drug-resistant", "quantity": "EC50", "value": "> 15000 nM"}
{"Structure (SMILES)": "CC(O)CN.O=C(O)C(Cl)Cl", "tested on": "Xanthium sibiricum", "conditions": "15 mg/mL, 21 days, post-emergence, greenhouse", "quantity": "herbicidal inhibition", "value": "53%"}
{"Structure (SMILES)": "O=C1NC2(CC2)COc2ncc(F)cc2[C@H]2COCCN2c2ccn3ncc1c3n2", "system": "Sprague-Dawley rat, male, serum", "conditions": "oral, 10 mg/kg/day, end of treatment, 4-week repeated-dose toxicity", "quantity": "albumin/globulin ratio", "value": "1.21 ± 0.39"}
{"Structure (SMILES)": "Fc1cccc(COc2ccc(Nc3ncnc4ccc(-c5ccc(N6CCOCC6)cc5)cc34)cc2Cl)c1", "tested on": "Plasmodium falciparum", "assay": "parasite growth, SYBR Green fluorescence", "system": "C235 (TM91C235), drug-resistant", "quantity": "EC50", "value": "290 nM"}
{"Structure (SMILES)": "CCOC(=O)C1(Cc2ccc(C#N)cc2)Oc2cc(F)ccc2N(Cc2ccc(C#N)cc2)C1=O (stereo not shown)", "tested on": "Arabidopsis thaliana", "assay": "stem length, petri dish germination", "system": "Col-0, 1/2 MS medium", "conditions": "50 µg/mL, 7 days, 22 °C, dark", "quantity": "inhibition", "value": "28.6%"}
{"Structure (SMILES)": "CCCCCCCC(=O)NCCCC[C@H](NC(=O)CCCCCCC)C(=O)N[C@@H](CCCCNC(=O)CCCCCCC)C(=O)NCC(=O)NCC(=O)NCC(=O)N[C@@H](CS)C(=O)N[C@@H](CCCNC(=N)N)C(=O)N[C@@H](CCCCN)C(=O)N1CCC[C@H]1C(=O)N[C@@H](CS)C(=O)N[C@@H](CCCNC(=N)N)C(=O)N[C@@H](CCCCN)C(=O)N1CCC[C@H]1C(N)=O", "tested on": "Candida albicans", "assay": "broth microdilution", "system": "CGMCC 2.209, RPMI-1640", "conditions": "48 h, 30 °C", "quantity": "MIC", "value": "8 µM"}
{"Structure (SMILES)": "Fc1cccc(COc2ccc(Nc3ncnc4ccc(-c5cccc(CN6CCCCC6)c5)cc34)cc2Cl)c1", "tested on": "Plasmodium falciparum", "assay": "parasite growth, SYBR Green fluorescence", "system": "W2, drug-resistant", "quantity": "EC50", "value": "73 nM"}
{"Structure (SMILES)": "CCOC(=O)C1(Cc2c(F)cccc2F)Oc2cc(F)ccc2N(Cc2c(F)cccc2F)C1=O (stereo not shown)", "tested on": "Arabidopsis thaliana", "assay": "stem length, petri dish germination", "system": "Col-0, 1/2 MS medium", "conditions": "200 µg/mL, 7 days, 22 °C, dark", "quantity": "inhibition", "value": "58.9%"}
{"Structure (SMILES)": "COc1cc(Nc2ncnc3ccc(-c4ccc(S(=O)(=O)N5CCOCC5)cc4)cc23)ccc1OCc1cccc(F)c1", "tested on": "Plasmodium falciparum", "assay": "parasite growth, SYBR Green fluorescence", "system": "C235 (TM91C235), drug-resistant", "quantity": "EC50", "value": "600 nM"}
{"Structure (SMILES)": "O=[N+]([O-])c1ccc(C2=[N+]([O-])c3ccccc3N3CCCN=C23)cc1", "tested on": "Fusobacterium nucleatum", "assay": "microbial growth", "quantity": "MIC50", "value": "≤ 0.06 µg/mL"}
{"Structure (SMILES)": "Cc1cc(C(=O)Nc2nc3cccc(C)c3n2[C@H]2CCCCN(C(=O)/C=C/CN(C)C)C2)ccn1", "tested on": "Trypanosoma brucei", "assay": "Alamar Blue", "system": "2T1, Tb927.11.12410 overexpression", "scale": "reference: parental 2T1 line", "quantity": "EC50 fold shift", "value": "6.25 fold and 7.2 fold and 4.83 fold and 6.74 fold"}
{"Structure (SMILES)": "CCOC(=O)C1(Cc2cccc(C)c2)Oc2cc(F)ccc2N(Cc2cccc(C)c2)C1=O (stereo not shown)", "tested on": "Arabidopsis thaliana", "assay": "stem length, petri dish germination", "system": "Col-0, 1/2 MS medium", "conditions": "50 µg/mL, 7 days, 22 °C, dark", "quantity": "inhibition", "value": "44.2%"}
{"Structure (SMILES)": "CC[C@H](C)CCCCC(=O)N[C@@H](CCN)C(=O)N[C@H](C(=O)N[C@@H](CCN)C(=O)N[C@H]1CCNC(=O)[C@H]([C@@H](C)O)NC(=O)[C@H](CCN)NC(=O)[C@H](CCN)NC(=O)[C@H](CC(C)C)NC(=O)[C@@H](CC(C)C)NC(=O)[C@H](CCN)NC1=O)[C@@H](C)O", "tested on": "Escherichia coli", "assay": "daily serial passaging", "system": "ATCC 8739", "conditions": "highest sub-MIC, 40 days", "scale": "reference: initial MIC", "quantity": "MIC fold change", "value": 2.63}
{"Structure (SMILES)": "Fc1cccc(COc2ccc(Nc3ncnc4ccc(-c5cccc(N6CCSCC6)c5)cc34)cc2Cl)c1", "tested on": "Plasmodium falciparum", "assay": "parasite growth, SYBR Green", "system": "D6", "conditions": "blood stage", "quantity": "EC50", "value": "440 nM"}
{"Structure (SMILES)": "CCOC(=O)C1(Cc2ccc([N+](=O)[O-])cc2)Oc2cc(F)ccc2N(Cc2ccc([N+](=O)[O-])cc2)C1=O (stereo not shown)", "tested on": "Arabidopsis thaliana", "assay": "root length, petri dish germination", "system": "Col-0, 1/2 MS medium", "conditions": "50 µg/mL, 7 days, 22 °C, dark", "quantity": "inhibition", "value": "39%"}
